Measured values gathered from unrelated publications.
Parts stem from different laboratories: compare values within a part only.

Sample 1 — method: protein-binding microarray; form: double-stranded DNA, one strand shown; sample: in vitro; concentration: 250 nM; notes: 60-bp whole probe; with: salmon DNA 0.4 mg/ml; relative to: random background probes; direction: higher = stronger binding; quantity: log fluorescence; shared flanks, not repeated: GCCTAGCAC … GTCTTGATTCGCTTGACGCTGCTG
Target: Interferon regulatory factor 7, full length, phosphomimetic (IRF7, Homo sapiens, UniProt Q92985, residues 1-503, S101K/S471D/S472D/S475D/S476D/S477D/S483D/S484D/S487D)
Sequence of UniProt Q92985 (whole entry, unmodified, looked up): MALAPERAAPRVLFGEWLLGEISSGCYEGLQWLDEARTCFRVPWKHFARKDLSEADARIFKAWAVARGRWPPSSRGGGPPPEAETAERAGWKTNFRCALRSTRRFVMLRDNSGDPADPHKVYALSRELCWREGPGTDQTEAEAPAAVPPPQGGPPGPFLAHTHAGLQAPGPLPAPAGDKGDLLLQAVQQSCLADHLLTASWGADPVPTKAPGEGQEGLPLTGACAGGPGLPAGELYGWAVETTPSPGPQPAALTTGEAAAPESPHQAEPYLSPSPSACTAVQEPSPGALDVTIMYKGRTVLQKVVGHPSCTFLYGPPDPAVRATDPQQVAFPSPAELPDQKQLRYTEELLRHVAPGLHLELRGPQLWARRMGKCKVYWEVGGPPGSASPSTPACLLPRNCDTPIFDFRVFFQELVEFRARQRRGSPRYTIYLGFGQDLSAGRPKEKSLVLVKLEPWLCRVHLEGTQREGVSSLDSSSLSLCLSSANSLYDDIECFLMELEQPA
Oligonucleotide = TTAGGACTGGACTAGCGGTTAGTGCTA; result = -0.277 z-score
Oligonucleotide = GTGACTCTGAACCTTGGGCTGTGCTAG; result = 0.274 z-score
Oligonucleotide = AGTATGTTCCCTATTTAAGAGTGCTAG; result = 3 z-score
Oligonucleotide = GACGATTTCGGGTTTCCAGACGTGCTA; result = 2 z-score
Oligonucleotide = GACGATTTCGGGACTGAAGACGTGCTA; result = 0.125 z-score
Oligonucleotide = GACGATTCCAGTTTGGAGACGTGCTAG; result = 0.523 z-score
Oligonucleotide = TTAGATTTCAGTATCCATTAGTGCTAG; result = 0.423 z-score
Oligonucleotide = GGCGGTTTCCTTTTCCTGACGTGCTAG; result = 6.55 z-score
Oligonucleotide = TTAGATTTCCTTATCCTTTAGTGCTAG; result = 1.14 z-score
Oligonucleotide = TTATGTTTCGACTATCGGTTAGTGCTA; result = 2.42 z-score
Oligonucleotide = GACGATCTCAGTTTCGAAACGTGCTAG; result = 5.69 z-score
Oligonucleotide = GACGATTTCAGTTCCGAGACGTGCTAG; result = 0.425 z-score
Oligonucleotide = TTAGGACTGGGACTGAGTTAGTGCTAG; result = -0.0708 z-score
Oligonucleotide = GACGTTATCCTACTGCTGACGTGCTAG; result = 0.442 z-score
Oligonucleotide = AGCTATCACTATTCTAGGGAAGTGCTA; result = -0.311 z-score
Oligonucleotide = GGCGGACTGGGGTATCGGGACGTGCTA; result = -0.756 z-score

Sample 2 — method: protein binding microarray; form: double-stranded DNA, one strand shown; sample: in vitro; concentration: not given; relative to: not given; direction: higher = stronger binding; quantity: E-score
Target: Histone acetyltransferase KAT6A, both winged helices, GST fusion (KAT6A, Homo sapiens, UniProt Q92794, residues 1-181)
Notes: 8-mer, flanks averaged, mean of 2 arrays, mostly near background
Residues (chain): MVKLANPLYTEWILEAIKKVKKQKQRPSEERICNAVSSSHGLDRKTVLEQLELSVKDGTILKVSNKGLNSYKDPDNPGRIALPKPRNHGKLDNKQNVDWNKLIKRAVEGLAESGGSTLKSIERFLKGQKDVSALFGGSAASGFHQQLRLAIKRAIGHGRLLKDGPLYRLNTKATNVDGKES
Oligonucleotide = ATTTGACA; result = -0.00441
Oligonucleotide = AAACATCG; result = -0.114
Oligonucleotide = AATGGTCG; result = -0.0573
Oligonucleotide = CCCTATGA; result = -0.142
Oligonucleotide = CCGGCCTC; result = 0.126
Oligonucleotide = GGACCAAC; result = 0.0462
Oligonucleotide = ACCAGCCG; result = 0.122
Oligonucleotide = CTGGTAAG; result = -0.0781
Oligonucleotide = CTCCAGAG; result = -0.0778
Oligonucleotide = AACAGGAG; result = -0.23
Oligonucleotide = GTGAGGAA; result = -0.0407
Oligonucleotide = GCCATGTA; result = -0.0477
Oligonucleotide = CACGTAAC; result = 0.0718
Oligonucleotide = CTCCTCGA; result = -0.221
Oligonucleotide = AGCCAGCT; result = -0.281
Oligonucleotide = CGTGCCAG; result = -0.0227
Oligonucleotide = CTCGACTC; result = -0.102
Oligonucleotide = CTGGGTCC; result = -0.0529
Oligonucleotide = GAAGAAGA; result = 0.00302
Oligonucleotide = GGCGTATA; result = 0.174
Oligonucleotide = CAGGGTTC; result = -0.0653
Oligonucleotide = CCTACTGC; result = -0.138
Oligonucleotide = AATGAGCT; result = -0.163
Oligonucleotide = TAGCCGCA; result = 0.19
Oligonucleotide = GACAGGTA; result = -0.162

Sample 3 — method: aptamer microarray, sandwich; form: DNA with 2'F-ANA; sample: in vitro; concentration: 200 nM; with: Cy3 exosite-II aptamer, 400 nM; direction: higher = stronger binding; quantity: mean fluorescence intensity; oligonucleotide: GGTTGGTGTGGTTGG
Target: Prothrombin, mature alpha-thrombin (F2, Homo sapiens, UniProt P00734)
Notes: whole 15-mer aptamer, many near background
Modification = 2'F-ANA at 2 7 8 9 12 13; result = 767 a.u.
Modification = 2'F-ANA at 2 3 8 11 13; result = 778 a.u.
Modification = 2'F-ANA at 1 2 3 8 9 11 12 14 15; result = 89.7 a.u.
Modification = 2'F-ANA at 3 7 9 11 14; result = 592 a.u.
Modification = 2'F-ANA at 4 6 9 10 12 13 14 15; result = 57.1 a.u.
Modification = 2'F-ANA at 6 8 9 10 12 15; result = 179 a.u.
Modification = 2'F-ANA at 4 8 10 12; result = 129 a.u.
Modification = 2'F-ANA at 3 6 8 9 10 14; result = 404 a.u.
Modification = 2'F-ANA at 5 7 8 10 11 13 15; result = 47.1 a.u.
Modification = 2'F-ANA at 2 3 5 8 9 12 14; result = 57.9 a.u.
Modification = 2'F-ANA at 2 3 5 9 14; result = 77.4 a.u.
Modification = 2'F-ANA at 2 3 4 9 10 11 13 15; result = 256 a.u.
Modification = 2'F-ANA at 2 3 6 11 12; result = 841 a.u.
Modification = 2'F-ANA at 1 2 4 9 12 13 15; result = 168 a.u.
Modification = 2'F-ANA at 2 7 8 10 13 15; result = 123 a.u.
Modification = 2'F-ANA at 1 3 4 8 9 10 12 13 14 15; result = 59.2 a.u.
Modification = 2'F-ANA at 2 3 5 7 8 12 13; result = 223 a.u.
Modification = 2'F-ANA at 1 3 5 6 7 8 9 11 13 14 15; result = 48.3 a.u.
Modification = 2'F-ANA at 2 3 7 8 9 10 12; result = 433 a.u.
Modification = 2'F-ANA at 1 8 9 11 12 13 14; result = 62.5 a.u.
Modification = 2'F-ANA at 1 2 5 7 9 12; result = 185 a.u.
Modification = 2'F-ANA at 1 2 3 5 6 7 8 10 11 13 14; result = 53.2 a.u.
Modification = 2'F-ANA at 3 4 7 8 9 10 11 14 15; result = 176 a.u.
Modification = 2'F-ANA at 6 7 8 9 13 14 15; result = 196 a.u.
Modification = 2'F-ANA at 3 4 5 6 8 10 11 12 14 15; result = 49.2 a.u.

Sample 4 — method: RNA Bind-n-Seq; form: RNA; sample: in vitro; concentration: not given; relative to: input RNA pool; direction: higher = stronger binding; quantity: bound/input enrichment
Target: RING finger protein unkempt homolog, zinc fingers 1-6, GST-SBP tag (UNK, Homo sapiens, UniProt Q9C0B0, residues 30-357)
Sequence of UniProt Q9C0B0 (30-357, looked up): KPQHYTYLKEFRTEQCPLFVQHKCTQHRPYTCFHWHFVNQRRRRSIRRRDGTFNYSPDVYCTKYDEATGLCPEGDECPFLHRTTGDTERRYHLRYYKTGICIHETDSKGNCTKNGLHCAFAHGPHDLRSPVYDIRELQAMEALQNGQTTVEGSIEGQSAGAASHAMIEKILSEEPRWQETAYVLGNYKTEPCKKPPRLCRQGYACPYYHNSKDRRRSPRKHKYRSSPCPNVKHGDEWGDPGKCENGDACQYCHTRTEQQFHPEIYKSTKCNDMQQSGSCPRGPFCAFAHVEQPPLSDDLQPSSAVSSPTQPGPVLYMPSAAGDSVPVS
Notes: RNA with constant flanks, human and mouse sites, ends assumed
Shared flanks, not repeated: GGGAGUUCUACAGUCCGACGAUC … CAACAGAGGAUUGAGCAUCA
Oligonucleotide = AAGUAUUCCUCGGGAUGUUUUUAUAUAAAUUAUGUUUUGGAAUAGAACAUAAAUGACUUUGAGUUAGGAUAAGGAUGAUAGGAUGGGUGCUGGAGAUGCCCUGCCUUGCUUAUUUGUUUC; result = 0.583 ratio
Oligonucleotide = UUGGACAUCCUCCUUCAGGAUACCACCAAAGAACCUUUGGAUCUGCCUGACAACCCCCGCAAUAGGCAUUUUACCAACAGCGUGCCUAACCCUAGGAUCUCAGAUGCUGAACUUGAAGCU; result = 0.768 ratio
Oligonucleotide = UUAUUUUCAGUUUGUAAUUUUUUUUUUUAAUUUACGUGUAUGUACUCACUAAGAAAGUACAUUUUCUAGGGGCUAAGGAUAUGGCUCAGUGGUAGAGCACUUGCCUAACAUACACAAAGC; result = 13.4 ratio
Oligonucleotide = CUGUCUCCCUCUGGAGAGUGGAGACUGGAUCCGGCUGCGUCUUCCCUGUGUUCCCUGUUUCUUUAGGUACGAACCCUUUGUCUUUCCUGUGCCUUCUCAGCCCUGGAGAGGCAGAAAUCC; result = 0.129 ratio
Oligonucleotide = AUUAGAGAGUCUGGCAAGGCAGACAGGGAUGGUGAUAAAAUGGCUCCUUCAGUUGAAAAGAAGAUUGCAGAACUCGAAAUGGGACUCCUUCACUUGCAGCAAAAUAUUGAAAUUCCGGAG; result = 0.467 ratio
Oligonucleotide = UUGAGCAGCGACCCUUUCAAUUUCAACAAUCAAAAUGGCGUGAACAAGGACGAGAAGGACCACUUGAUUGAACGCCUGUACAGAGAGAUCAGUGGACUGACAGGGCAGCUGGACAACAUG; result = 0.316 ratio
Oligonucleotide = AUACUGUGGAUAUUUGUGAAUUGUGUGGUUUGUUUGUUUGUUUUCUUUUAUGUACUGUUGACUAGUUAUGGCACUUACUGAUUAAACUUACACUGCUGCAGAUUGCUGUGUAACAAGCCA; result = 0.461 ratio
Oligonucleotide = GAAAAAUUAUCUAGGCCUGAUCUCAAACGGCAGAAUCUACUGUAAUCAAAUCAAUGACUUUUUUAGACACAUUUUAUAAAAAUGCAGCACAUGUAGUGUUGCCCCCCACCCAAUCUGUAU; result = 23.7 ratio
Oligonucleotide = UUAGUGGUGACUUCAUUGUGCAAAUCAUCUUCUCUGCCAGCUUCCCAGAACAAUCUGCGGCACUAGGUCCUACCUCCAGCCAAUGAAUGGGAUCAUUCUGGAUGUCACCAGCCCAAUAGG; result = 0.225 ratio
Oligonucleotide = CGGUUUGCAGUCCCUCCAGCACUUGGGAGUAAUUUGACCGACAAUGUCAUGAUCACAGUAGAUAUUAUUCCUUCAGGUUGGAAUUCAGCUGAUGGUAAAAGUGAUAAAACUAAAAGUGCG; result = 0.265 ratio
Oligonucleotide = CUAAACCAGCUAGACCAGCGCUUUCCGGAGAACCACCCUACCCAUAGCAGCCCCCUGGAUACCAUCUAUUACCAUCGGGAGCUCCUUUGCUAUUCUCUGGAUGGACUUCGUGUAGAUCUG; result = 0.272 ratio

Repeated from above (sample 2):
Oligonucleotide = CTGGTAAG; result = -0.0781
Oligonucleotide = CAGGGTTC; result = -0.0653
Oligonucleotide = AAACATCG; result = -0.114
Oligonucleotide = AGCCAGCT; result = -0.281
Oligonucleotide = AATGAGCT; result = -0.163
